Results pooled from the literature.

With `CCOc1cncc(-c2ccc(NC(=O)C3(c4ccnc(NS(=O)(=O)C5CC5)n4)CCOCC3)nc2)n1` the IC50 was 76 nM (MM1.S; cell growth or viability, ATP luminescence; 72 h).
Under “log2 fold change”, `CN1CCCNC(=O)c2cccc(c2)C(=O)NCCCN(C)CCCNc2cccc3c2C(=O)c2cccc(c2C3=O)NCCC1` is recorded as 0.494 (SAS; RNA-Seq, measured: AASDHPPT mRNA; 1 µM, 6 h; reference: untreated cells).
`CC1CS(=O)(=O)CCN1/N=C/c1ccc([N+](=O)[O-])o1` (centres unmarked) has a relative translation of 105% (Trypanosoma cruzi; reporter mRNA translation, inhibitor, measured: capped polyadenylated Renilla luciferase mRNA; cell-free extract; concentration not given; reference: control RNA).
For `Nc1ncc(-c2cc(-c3cnn(CC(F)(F)F)c3)ncc2F)nc1C(=O)NC1CNCC(F)C1` (centres unmarked), the remaining binding was 100% (EPHB4; KINOMEscan; 1 µM; reference: DMSO control).
For `COC1CN([C@H]2CC[C@H]([C@@]3(C)Oc4c(Cl)cc(C(=O)NCc5c(SC)cc(C)[nH]c5=O)c(C)c4O3)CC2)C1`, “log2 fold change” read 0.909 (RNA-seq, measured: MYO1D mouse homolog; mouse, HT-1376 xenograft, whole blood; dose not given; reference: vehicle).
With `CC(=O)[O-].O.[Cu+2].[O-]c1ccc(Br)cc1C=NCCN1CCOCC1` the inhibition was 49.2% (superoxide scavenging; 160 µM).
For `Cc1ncsc1-c1ccc(C(C)NC(=O)C2CC(O)CN2C(=O)C(NC(=O)CCCCCCCCCCN2CCCC(Nc3ncc(Cl)c(Nc4ccccc4S(=O)(=O)C(C)C)n3)C2)C(C)(C)C)cc1` (centres unmarked), “log2 fold change” read -1.18 (22Rv1; RNA-seq, measured: MGME1 mRNA; concentration not given; reference: DMSO).
For `CNS(=O)(=O)Nc1nccc(Cc2c(C)c3ccc(Oc4ncccc4F)cc3oc2=O)c1F`, the IC50 was 336 nM (SCC-3; cell viability; 7 days).
Under “percent of control”, `C=CC(=O)Nc1cccc(Cn2ncc3cnc(Nc4cnn(CCOC)c4)nc32)c1` is recorded as 100% (WEE1 human; binding, KINOMEscan; 100 nM; lower = stronger binding).
With `O=C(CNc1cccc2ccccc12)N/N=C/c1ccc([N+](=O)[O-])o1` the relative translation was 88.5% (Trypanosoma cruzi; reporter mRNA translation, inhibitor, measured: capped polyadenylated Renilla luciferase mRNA; cell-free extract; concentration not given; reference: control RNA).
With `CC(C)c1ccc(N(C)c2ccc3c(c2)OCC[C@H]3CNc2cnccc2C(=O)O)cc1` the IC50 was 11.7 nM (HEL; cell viability, CellTiter-Glo; 7 days).

Excerpt of the above:
`CC1CS(=O)(=O)CCN1/N=C/c1ccc([N+](=O)[O-])o1` (centres unmarked) has a relative translation of 105% (Trypanosoma cruzi; reporter mRNA translation, inhibitor, measured: capped polyadenylated Renilla luciferase mRNA; cell-free extract; concentration not given; reference: control RNA).
Under “log2 fold change”, `CN1CCCNC(=O)c2cccc(c2)C(=O)NCCCN(C)CCCNc2cccc3c2C(=O)c2cccc(c2C3=O)NCCC1` is recorded as 0.494 (SAS; RNA-Seq, measured: AASDHPPT mRNA; 1 µM, 6 h; reference: untreated cells).
